# Values quoted from earlier work that unrelated publications cite.
# Lines come from different studies, so protocols differ. “And” joins repeats or separate records; there may be more than shown. ± marks the error that the study gave.
# Sequence of UniProt P35968 (whole entry, looked up): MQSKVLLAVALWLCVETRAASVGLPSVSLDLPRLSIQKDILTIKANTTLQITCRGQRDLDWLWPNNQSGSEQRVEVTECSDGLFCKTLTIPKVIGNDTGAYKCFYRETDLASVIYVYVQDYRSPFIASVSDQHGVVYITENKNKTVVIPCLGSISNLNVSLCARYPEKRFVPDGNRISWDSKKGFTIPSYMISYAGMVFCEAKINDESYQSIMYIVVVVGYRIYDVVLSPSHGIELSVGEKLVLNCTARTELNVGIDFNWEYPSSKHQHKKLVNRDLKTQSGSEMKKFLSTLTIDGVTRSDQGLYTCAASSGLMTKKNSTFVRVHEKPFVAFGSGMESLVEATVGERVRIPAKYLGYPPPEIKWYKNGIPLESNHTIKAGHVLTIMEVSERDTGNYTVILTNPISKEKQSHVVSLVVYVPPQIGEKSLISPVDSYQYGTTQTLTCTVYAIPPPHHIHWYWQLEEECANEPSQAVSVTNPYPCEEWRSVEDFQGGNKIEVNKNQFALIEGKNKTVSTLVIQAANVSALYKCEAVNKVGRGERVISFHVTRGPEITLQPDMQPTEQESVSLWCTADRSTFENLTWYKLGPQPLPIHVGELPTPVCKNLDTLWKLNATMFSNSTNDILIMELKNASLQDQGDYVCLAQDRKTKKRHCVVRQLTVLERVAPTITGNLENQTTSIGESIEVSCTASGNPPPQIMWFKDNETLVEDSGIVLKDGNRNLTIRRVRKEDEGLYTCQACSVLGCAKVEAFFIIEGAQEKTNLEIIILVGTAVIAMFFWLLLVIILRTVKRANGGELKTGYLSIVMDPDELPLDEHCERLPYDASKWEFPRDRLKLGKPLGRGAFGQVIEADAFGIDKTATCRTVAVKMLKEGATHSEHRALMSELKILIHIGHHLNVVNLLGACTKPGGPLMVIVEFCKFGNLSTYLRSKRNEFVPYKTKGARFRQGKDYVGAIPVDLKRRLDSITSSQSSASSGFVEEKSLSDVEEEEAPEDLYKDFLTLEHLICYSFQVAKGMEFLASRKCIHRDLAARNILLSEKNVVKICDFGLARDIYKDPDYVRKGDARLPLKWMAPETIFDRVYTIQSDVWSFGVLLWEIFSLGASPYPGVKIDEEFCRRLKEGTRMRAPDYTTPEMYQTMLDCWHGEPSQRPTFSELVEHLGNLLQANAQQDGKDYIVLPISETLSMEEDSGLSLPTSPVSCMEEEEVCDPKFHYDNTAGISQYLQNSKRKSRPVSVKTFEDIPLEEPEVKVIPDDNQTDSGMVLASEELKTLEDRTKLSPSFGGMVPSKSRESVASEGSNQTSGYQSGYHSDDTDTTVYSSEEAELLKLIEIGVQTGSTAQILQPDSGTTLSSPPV
SMILES,target or system,test,test system,conditions,how to read,quantity,value
O=C1c2ccccc2-c2c1c1ccc([N+](=O)[O-])cc1c(=O)n2C[C@H](O)CO,ovarian OVCAR-3,cell growth,,,,GI50,0.309 µM
COc1ccc(/C=C/c2coc3ccc(OC)cc3c2=O)cc1,Ca9-22,,,,,CC50,6.4 ± 2.4 µM
CCN(CC)CCNC(=O)c1c(C)[nH]c(/C=C2\C(=O)Nc3ccc(F)cc32)c1C,hiPSC-derived cardiomyocytes,,,"72 h, tested 0 to 100 µM",,beating cessation concentration,3.7 µM
Cc1ccc(Sc2cccc3[nH]c4nc(N)nc(N)c4c23)cc1,"KDR (Homo sapiens, UniProt P35968)","kinase activity, inhibitor",,,,IC50,56.3 ± 7.1 µM
C[C@]12CC[C@@H]3c4ccc(O)cc4CC[C@H]3[C@@H]1CC[C@H]2O,HT-22,cell protection,,with: glutamate 20 mM,,EC50,5.74 µM
COc1cccc2c1C(=O)c1c(O)c3c(c(O)c1C2=O)C[C@@](O)(C(=O)CO)C[C@@H]3O[C@H]1C[C@H](N)[C@H](O)[C@H](C)O1,Ca9-22,,,,,CC50,0.15 ± 0.077 µM
N#Cc1ccc2c3c(n(CCCn4ccnc4)c(=O)c2c1)-c1ccccc1C3=O,NCI-60 panel mean,cell growth,,,,GI50,0.944 µM and ≥ 0.944 µM
CC(C)c1ccc2c(c1)CCC1C(C)(CNC(=O)c3ccccc3)CCCC21C (centres unmarked),mammalian cells,cytotoxicity,,,,IC50,> 100 µM
O=C(O)CNC(=O)c1ccccc1[131I],,,"normal rat, liver","60 min, with: co-injected 99mTc-1",,percent injected dose,0.6 ± 0.3 %ID
Nc1nc2c(ncn2[C@@H]2O[C@@H]3COP(=O)(O)O[C@H]3[C@H]2O)c(=O)[nH]1,PDE2A,"cyclic nucleotide hydrolysis, substrate or inhibitor, isothermal titration calorimetry",,,,Km or Ki,31 µM
O=C1c2ccccc2-c2c1c1ccc([N+](=O)[O-])cc1c(=O)n2CCCn1ccnc1,colon HCT-116,cell growth,,,,GI50,0.274 µM
Cc1c(Cl)ccc2c1NC(=O)[C@]21N[C@@H](Cc2ccccc2)[C@H]2C(=O)N(c3ccc(F)cc3)C(=O)[C@H]21,NIH 3T3,cytotoxicity,,,,EC50,≥ 160 µM
O=c1[nH]cc(F)c(=O)[nH]1,human gingival fibroblasts,,,,,CC50,> 1000 µM
COc1cc(/C=C/C(=O)NCCc2ccc(O)cc2)ccc1O,RAW264.7,cytotoxicity,,24 h,,IC50,> 100 µM
Cc1nc2cccc(OCC(C)(C)C(=O)NC(C)C)c2c(N)c1C(=O)[O-].[Na+],primary human lymphocytes,,,"up to 500 µg/mL, with and without S9",,chromosomal aberration test,negative
CNC(=O)c1ccccc1Sc1ccc2c(/C=C/c3ccccn3)n[nH]c2c1,hiPSC-derived cardiomyocytes,contractility,,72 h,,lowest effective concentration,71.8 µM
CCCCCCCCCCCCCCCCO[C@@H]1O[C@H](CO)[C@@H](O)[C@H](O)[C@H]1O,B16-F10,"cytotoxicity, MTT",,24 h,,EC50,50 µM
C[C@]12CC[C@@H]3c4cc(C56CC7CC(CC(C7)C5)C6)c(O)cc4CC[C@H]3[C@@H]1CCC2=O,HT-22,cell protection,,with: glutamate 20 mM,,EC50,0.365 µM
O=C1c2ccccc2-c2c1c1ccc([N+](=O)[O-])cc1c(=O)n2CCCN1CCOCC1,CNS SF-539,cell growth,,,,GI50,0.095 µM
COc1cc2c3c(n(CCCN4CCOCC4)c(=O)c2cc1OC)-c1cc2c(cc1C3=O)OCO2,NCI-60 panel (60 lines),,,mean graph midpoint,,GI50,4.64 ± 1.25 µM
COc1cc(O)c(CC=C(C)C)c(O)c1C(=O)/C=C/c1ccc(O)cc1,A549,cytotoxicity,,"48 h, approximate conversion from µg/mL",,IC50,~12.1 µM
Cc1nc(Nc2ncc(C(=O)Nc3c(C)cccc3Cl)s2)cc(N2CCN(CCO)CC2)n1,hiPSC-derived cardiomyocytes,contractility,,72 h,,lowest effective concentration,1.2 µM
COc1ccc2occ(/C=C/c3cc(OC)c(OC)c(OC)c3)c(=O)c2c1,human gingival fibroblasts,,,,,CC50,339 ± 183 µM
C[C@@H](Oc1cc(-c2cnn(C3CCNCC3)c2)cnc1N)c1c(Cl)ccc(F)c1Cl,hiPSC-derived cardiomyocytes,,,"72 h, tested 0 to 100 µM",,beating cessation concentration,11 µM
COc1cc(/C=C2\CCC/C(=C\c3ccc([N+](=O)[O-])cc3)C2=O)cc(OC)c1OC,"HGF, HPC, HPLF normal cells",,,,,CC50,354 µM
CC(C)C[C@H](NC(=O)[C@H](Cc1ccccc1)NC(=O)c1cnccn1)B(O)O,RPMI-8226,cytotoxicity,,,,EC50,0.03 µM
O=C1c2cccc3c2[C@H](CCC3)CN1[C@@H]1CN2CCC1CC2,,,"healthy volunteers, plasma","oral, dose not given, netupitant-palonosetron alone, ketoconazole study",,CL/F,14.2 L/h
Cc1ccc(OCC(=O)N(Cc2cccs2)c2ccn[nH]2)cc1,human peripheral blood lymphocytes,,,"up to 270 µg/mL, with and without S9",,chromosome aberration result,negative
C#Cc1cccc(Nc2ncnc3cc(OCCOC)c(OCCOC)cc23)c1,hiPSC-derived cardiomyocytes,contractility,,"concentration not given, 72 h, at effective concentration",reference: baseline,log2 fold change,0.51
COc1ccc2occ(/C=C/c3ccc(O)cc3)c(=O)c2c1,Ca9-22,,,,,CC50,2 ± 1.2 µM
CCCCCCCCCCCCCCCCCCO[C@@H]1O[C@H](CO)[C@@H](O)[C@H](O)[C@H]1O,B16-F10,"cytotoxicity, MTT",,24 h,,EC50,32 µM
CCCS(=O)(=O)Nc1ccc(F)c(C(=O)c2c[nH]c3ncc(-c4ccc(Cl)cc4)cc23)c1F,hiPSC-derived cardiomyocytes,contractility,,"concentration not given, 72 h, at effective concentration",reference: baseline,log2 fold change,0.34
O=c1c2nc(Br)n([C@@H]3O[C@@H]4COP(=O)(O)O[C@H]4[C@H]3O)c2nc2[nH]c(-c3ccccc3)cn12,PDE1C,"cyclic nucleotide hydrolysis, substrate or inhibitor, isothermal titration calorimetry",,,,Km or Ki,73.1 µM
Cc1ccccc1-c1cc(N2CCN(C)CC2)ncc1N(C)C(=O)C(C)(C)c1cc(C(F)(F)F)cc(C(F)(F)F)c1,,,"patients, plasma","oral, dose not given, netupitant-palonosetron combination, with: etoposide 35 to 100 mg/m^2 IV",,CL/F,20.8 L/h
CS(=O)(=O)CCNCc1ccc(-c2ccc3ncnc(Nc4ccc(OCc5cccc(F)c5)c(Cl)c4)c3c2)o1,hiPSC-derived cardiomyocytes,contractility,,"concentration not given, 72 h, at effective concentration",reference: baseline,log2 fold change,0.4

# Excerpt of the above:
SMILES,target or system,test,test system,conditions,how to read,quantity,value
Cc1c(Cl)ccc2c1NC(=O)[C@]21N[C@@H](Cc2ccccc2)[C@H]2C(=O)N(c3ccc(F)cc3)C(=O)[C@H]21,NIH 3T3,cytotoxicity,,,,EC50,≥ 160 µM
O=c1[nH]cc(F)c(=O)[nH]1,human gingival fibroblasts,,,,,CC50,> 1000 µM
COc1cc(/C=C/C(=O)NCCc2ccc(O)cc2)ccc1O,RAW264.7,cytotoxicity,,24 h,,IC50,> 100 µM
Cc1nc2cccc(OCC(C)(C)C(=O)NC(C)C)c2c(N)c1C(=O)[O-].[Na+],primary human lymphocytes,,,"up to 500 µg/mL, with and without S9",,chromosomal aberration test,negative
